Assay results gathered from unrelated publications.
Protocols differ between the studies behind these lines. Numbers after ± are the reported error.
Mitogen-activated protein kinase 14: Mitogen-activated protein kinase 14 (Rattus norvegicus, UniProt P70618)
CTSL: Procathepsin L (CTSL, Homo sapiens, UniProt P07711)
CA2: Carbonic anhydrase 2 (CA2, Homo sapiens, UniProt P00918)
uncharacterized protein: uncharacterized protein (Anopheles gambiae, UniProt Q7QFG0)

| Structure (SMILES) | target | test | test system | conditions | IC50 |
| --- | --- | --- | --- | --- | --- |
| CC[C@H](C)[C@H](NC(=O)[C@H](CC(C)C)NC(=O)[C@@H]1CCCN1C(=O)[C@H](CCC(=O)O)NC(=O)[C@@H]1CCCN1C(=O)[C@H](CCCNC(=N)N)NC(=O)[C@@H]1CCCN1C(=O)[C@H](CCCNC(=N)N)NC(=O)[C@H](CCC(N)=O)NC(=O)[C@H](CCCCN)NC(=O)[C@@H]1CCCN1C(=O)[C@H](C)NC(=O)[C@@H](N)Cc1ccc(O)cc1)C(=O)N[C@H](C(=O)N1CCC[C@H]1C(=O)N[C@H](C(=O)O)[C@@H](C)O)[C@@H](C)CC | Mitogen-activated protein kinase 14 | enzyme activity, inhibitor, fluorescence |  | pH 7.4 | 34.4 µM |
| CC(C)Oc1c(NC(=O)c2ccc(NC(=O)C(CC(N)=O)NC(=O)c3cc(F)c(N=Nc4c(F)cccc4F)c(F)c3)cc2)ccc(C(=O)NN=Cc2ccc(C(=O)O)cc2)c1O (centres unmarked) | DNA gyrase (gyrA/gyrB, Escherichia coli, UniProt P0AES4+P0AES6) | DNA supercoiling, inhibitor |  | 30 min, 37 °C, after 1 h irradiation at 365 nm | > 25 µM |
| O=C(CCc1ccc(Br)cc1)N[C@H]1CCOC1=O | lasR (Pseudomonas aeruginosa, UniProt P25084) | reporter gene, antagonist | PAO-JP2 | with: OdDHL 10 nM | 2.2 µM |
| Cc1ccc(-c2csc(NN=C(C=Cc3c(Cl)cccc3Cl)C(=O)O)n2)cc1 | Cholinesterase (BCHE, Equus caballus, UniProt P81908) | enzyme activity, inhibitor |  |  | 6.14 µM |
| CC(C)C[C@H](NC(=O)[C@H](CCCCN)NC(=O)[C@H](CCCCN)NC(=O)[C@H](CCCCN)NC(=O)[C@H](CCCCN)NC(=O)[C@@H]1CCCN1C(=O)[C@H](CCCNC(=N)N)NC(=O)[C@H](Cc1ccccc1)NC(=O)[C@H](CCCCN)NC(=O)[C@H](CCCCN)NC(=O)[C@H](C)NC(=O)[C@@H](N)Cc1ccc(O)cc1)C(=O)N[C@@H](CCCNC(=N)N)C(=O)N[C@@H](CC(C)C)C(=O)N[C@@H](CC(N)=O)C(=O)N1CCC[C@H]1C(=O)O | Mitogen-activated protein kinase 14 | enzyme activity, inhibitor, fluorescence |  | pH 7.4 | 1.97 µM |
| CN1CCCCC1C(=O)NC(Cc1ccc(-c2ccccc2)cc1)B(O)O (centres unmarked) | 20S proteasome, beta1 subunit (Plasmodium falciparum, UniProt Q8I0U7+Q8I6T3) | β1 activity, inhibitor |  | with: Ac-nLPnLD-AMC | > 10 µM |
| CCCN(CCCC[C@H](NC(=O)[C@H](CCCN1CCOCC1)NC(=O)[C@@H](NC(=O)[C@H](Cc1ccccc1)NC(=O)c1ccc(C(C)(C)C)cc1)C(C)C)C(=O)N[C@@H](CO)C(N)=O)C1CC2CCC1C2 (some centres unmarked) | Chromobox protein homolog 8 (Homo sapiens, UniProt Q9HC52) | ligand displacement, TR-FRET |  |  | 0.18 µM |
| N=C(N)NCCC[C@H](NC(=O)[C@@H]1CCCN1C(=O)[C@H](N)Cc1ccccc1)C(=O)CCl | Furin (FURIN, Homo sapiens, UniProt P09958) | enzyme activity, inhibitor |  | with: pERTKR-AMC 5 µM | > 10 µM |
| CC(C)C[C@H](NC(=O)[C@H](C)NC(=O)[C@@H](N)Cc1ccc(O)cc1)C(=O)N[C@@H](CCC(N)=O)C(=O)N[C@@H](CCC(N)=O)C(=O)N[C@@H](CCCNC(=N)N)C(=O)N[C@@H](CCCNC(=N)N)C(=O)N[C@@H](CC(C)C)C(=O)N[C@@H](CCC(N)=O)C(=O)N[C@@H](Cc1c[nH]cn1)C(=O)N[C@@H](CCCNC(=N)N)C(=O)N[C@@H](CC(C)C)C(=O)N[C@@H](CCCNC(=N)N)C(=O)N[C@@H](CC(C)C)C(=O)N[C@@H](CCCNC(=N)N)C(=O)N[C@@H](C)C(=O)O | Mitogen-activated protein kinase 14 | enzyme activity, inhibitor, fluorescence |  | pH 7.4 | 6.85 µM |
| CNC(=O)C[C@H](Cc1ccncc1)NC(=O)[C@@H](Cc1cccc(Br)c1)NC(=O)[C@@H](N)Cc1ccsc1 | CTSL | enzyme activity, inhibitor |  |  | > 10 µM |
| CC[C@H](C)[C@H](N)C(=O)N[C@@H](CCCNC(=N)N)C(=O)N[C@@H](CCC(N)=O)C(=O)N[C@@H](CCC(=O)O)C(=O)N[C@@H](CCC(=O)O)C(=O)N[C@H](C(=O)N[C@@H](CCC(N)=O)C(=O)N[C@@H](CCC(=O)O)C(=O)N[C@@H](CC(C)C)C(=O)O)C(C)C | HLA class I histocompatibility antigen, B alpha chain (Homo sapiens, UniProt P01889) | peptide-MHC binding, radioligand competition binding |  |  | > 70 µM |
| O=S(=O)(N/N=C/c1ccc(OS(=O)(=O)c2ccc(Br)cc2)cc1)c1ccc(Cl)cc1 | CA2 | enzyme activity, inhibitor, absorbance |  |  | 0.108 µM |
| CN(C)C(=O)c1cncc(-c2cnc3[nH]cc(-c4cc(OS(=O)(=O)F)ccc4C#N)c3c2)c1 | ABL1 (Homo sapiens, UniProt P00519) | kinase activity, inhibitor, HTRF |  | 1 h preincubation, with: ATP 20 µM | > 1 µM |
| COc1ccccc1C1SCC(=O)N1CCCN(C)C (centres unmarked) | uncharacterized protein | enzyme activity, inhibitor, Ellman |  | with: 1 mM acetylthiocholine | 46 µM |
| Cc1cc(O)c2c(c1)OC(C)(C)c1ccc(C)cc1-2 | rat intestinal maltase | inhibitor | rat intestinal acetone powder | 10 min, 37 °C, with: maltose 10 mM | 680 ± 50 µM |
| O=C(Nc1cccs1)c1cccnc1 | NAMPT (Homo sapiens, UniProt P43490) | enzyme activity, inhibitor, fluorescence |  |  | 48 µM |

| Structure (SMILES) | target | test | test system | conditions | IC50 |
| --- | --- | --- | --- | --- | --- |
| Nc1ccn(C2OC(COP(=O)(O)OP(=O)(O)OP(=O)(O)O)C(O)C2(F)F)c(=O)n1 (centres unmarked) | pyrG (Escherichia coli, UniProt P0A7E5, C268A) | enzyme activity |  | with: 6.0 mM glutamine, 1.0 mM ATP, 0.20 mM UTP | 9.6 ± 0.8 µM |
| O=C(COc1ccc(Cl)cc1Cl)Nc1ccc(CN2CCCCC2)cc1 | uncharacterized protein | enzyme activity, inhibitor, Ellman |  | pH 7.4, 30 °C, with: 1 mM acetylthiocholine | 4.4 µM |
| CC[C@H](C)[C@H](NC(=O)CNC(=O)[C@H](C)NC(=O)[C@H](CCSC)NC(=O)[C@H](CCCNC(=N)N)NC(=O)[C@H](CCCCN)NC(=O)[C@H](Cc1c[nH]c2ccccc12)NC(=O)[C@H](CO)NC(=O)[C@H](CC(C)C)NC(=O)[C@H](CS)NC(=O)[C@H](C)NC(=O)[C@@H](N)Cc1ccc(O)cc1)C(=O)N[C@@H](Cc1ccccc1)C(=O)N[C@@H](Cc1ccccc1)C(=O)N[C@@H](CC(C)C)C(=O)N1CCC[C@H]1C(=O)O | Mitogen-activated protein kinase 14 | enzyme activity, inhibitor, fluorescence |  | pH 7.4 | 3.94 µM |
| COC(=O)c1ccc(COC(CN2CCN(C(=O)Nc3ccccc3C)CC2)c2ccc(Cl)cc2)cc1 (centres unmarked) | ERG11 (Candida albicans, UniProt P10613) | enzyme activity, inhibitor, mass spectrometry |  |  | 0.824 µM |
| CC(C)C[C@H](NC(=O)[C@H](CCCCN)NC(=O)[C@H](CC(C)C)NC(=O)[C@H](CCCCN)NC(=O)[C@H](CCCNC(=N)N)NC(=O)[C@@H]1CCCN1C(=O)[C@H](CCCNC(=N)N)NC(=O)CNC(=O)[C@H](CCCNC(=N)N)NC(=O)[C@H](CCCCN)NC(=O)CNC(=O)[C@@H]1CCCN1C(=O)[C@H](C)NC(=O)[C@@H](N)Cc1ccc(O)cc1)C(=O)N[C@@H](CS)C(=O)N[C@@H](CCCCN)C(=O)O | Mitogen-activated protein kinase 14 | enzyme activity, inhibitor, fluorescence |  | pH 7.4 | 0.06 µM |
| O=C(O)CCn1c(=O)oc2cc(Cl)c(Cl)cc21 | SLCO1B1 (Homo sapiens, UniProt Q9Y6L6) | inhibitor |  | median | > 50.1 µM |
| CC(C)C[C@H](NC(=O)[C@H]1O[C@@H]1C(=O)O)C(=O)NCCCCN=C(N)N | CTSL | enzyme activity, inhibitor |  |  | 0.0064 µM |
| O=S(=O)(N/N=C/c1ccc(OS(=O)(=O)c2cc(Cl)ccc2Cl)cc1)c1cc(Cl)ccc1Cl | CA2 | enzyme activity, inhibitor, absorbance |  |  | 0.14 µM |
| C[C@@H]1COCCN1c1nc(NCc2cccnc2C(F)(F)F)c2cccnc2n1 | human phosphodiesterase 3 |  |  |  | > 100 µM |
| Cc1ccc(N2CC3CC(C2)N3C)cc1C(=O)NC1(c2ccc3c4c(cccc24)C(=O)N3C)CC1 | KCNH2 (Homo sapiens, UniProt Q12809) | enzyme activity, inhibitor |  |  | 3.9 µM |
| CN(C)C(=O)On1nnc2ccccc21 | CTSL | enzyme activity, inhibitor, FRET |  |  | > 100 µM |
| C=CC(=O)N1[C@H](c2ccc3c(c2)OCO3)c2[nH]c3ccccc3c2C[C@H]1C(=O)N1CCOCC1 | Hepatocyte nuclear factor 3-alpha (FOXA1, Homo sapiens, UniProt P55317) | probe reactivity, gel-based ABPP | purified protein | with: oligonucleotide | 8 µM |
| CCOC(=O)c1ccccc1-c1c2ccc(=O)cc-2oc2cc(OCCCCCCn3nnnc3C(NCc3ccccc3)c3ccc(Cl)cc3)ccc12 (centres unmarked) | ALOX15 (Homo sapiens, UniProt P16050) | enzyme activity, inhibitor, absorbance |  |  | 53.4 µM |
| CCC1c2ccsc2CCN1C(=O)Cn1cc(CC2NC(=O)NC2=O)nn1 (centres unmarked) | CTSL | enzyme activity, inhibitor, FRET |  |  | > 100 µM |
| CC[C@H](C)[C@H](NC(=O)[C@H](CC(C)C)NC(=O)[C@@H]1CCCN1C(=O)[C@H](CCC(=O)O)NC(=O)[C@@H]1CCCN1C(=O)[C@H](CCCNC(=N)N)NC(=O)[C@@H]1CCCN1C(=O)[C@H](CCCNC(=N)N)NC(=O)[C@H](CCC(N)=O)NC(=O)[C@H](CCCCN)NC(=O)[C@@H]1CCCN1C(=O)[C@H](C)NC(=O)[C@@H](N)Cc1ccc(O)cc1)C(=O)N[C@H](C(=O)N[C@@H](C)C(=O)N[C@H](C(=O)O)[C@@H](C)O)[C@@H](C)CC | Mitogen-activated protein kinase 14 | enzyme activity, inhibitor, fluorescence |  | pH 7.4 | 179 µM |
| CCN1CCC[C@@H]1CNC(=O)c1cc([N+](=O)[O-])c(N(C)C)cc1OC | uncharacterized protein | enzyme activity, inhibitor, Ellman |  | pH 7.4, 30 °C, with: 1 mM acetylthiocholine | 51 µM |
